Published values of several laboratories.
Parts stem from different laboratories: compare values within a part only. Positions count from the first letter of the parent shown.

Sample 1 — technique: RNA Bind-n-Seq; molecule type: RNA; matrix: in vitro; concentration: 365 nM; baseline: no-protein control; direction: higher = stronger binding; measurement: RBNS enrichment (R)
Target: RNA binding protein fox-1 homolog 2, RRM domain, GST-SBP tag (RBFOX2, Homo sapiens, UniProt O43251-10, residues 100-194)
Notes: natural RNA segment, single round, ends assumed
All sequences stand within: GGGAGUUCUACAGUCCGACGAUC … UGGAAUUCUCGGGUGCCAA
Residues (chain): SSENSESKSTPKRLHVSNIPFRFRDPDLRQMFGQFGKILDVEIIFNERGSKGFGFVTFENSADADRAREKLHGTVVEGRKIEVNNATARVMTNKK
AAUGUCCCCCAUCAUGUGGCCCAACUCUCCUGGCCUGGCCAUCUCCCUCCCCAGAAACAGUGUGCAUGGGUUAUUUUGGAGUGUAGGUGACUUGUUUACUCAUUGAAGCA: 12.4
CUUGACAUAAUUGCAUUUGGCUUGUCAUGUGCCUGGCAUUAAAAACAAUAUUGAGUUCACAUAAUAGGUAAAUGCUGGAUUUGUUUUGUUUUGUUUUGAAACAGGGUCAC: 0.993
AUUUUGAAAAGGAUAACAAGGCUGGGCACAGUGACUCACACCUGUAAUCCUAGCACUUUGAGAGGCUAAGAAGGGAGGAUCACUUGAACCCAGGAGUUCAAGACCAGCCU: 0.303
AGGUUUAAUAUGCAUUCAGAUUACUUUUACUAAAUAGGACACCAUAAAGCUUUUGUUAUAUAUUAAAUGUAAACUGAAAGGAAUGUAAACAUAUGUAUUGUUAAUUAUAA: 1.04
GACCAACCUGGCUAACAUGGCAAAACCUCGUCUCUACUAAAAAUACAAAAAUCAGCCCGGCGUGGUGGCGGGCAUCUGUAAUCCCAUCUACUCGGGAGGCUGAGGCAGGA: 0.537
AACCCAAACCCUGCGGUACCCACCCCGGUAGUGGCCAGUCAUCUUGUGCUGACAUUAGCAUUCACCCUGUUGGAUAGGUUAGCUUCCCGAGACAUCUCCUUCCACCAUUC: 0.45
AGUUGGGUUUCUGGCUUGAGAUGAAUCCAAGCAGCAGAAUGAGCCAGGAGUAGCAGGAGAUGGGCAAAGAAAACUGGGGUGCACUCAGCUCUCACAGGGGUAAUCAUCUC: 0.487
AUGAAGAUACCACGGCUGUUCUGGUCAGCUCCUACCCUUACAUCUCUGUGUGUGUCGUCCCUCAUCCCGUGUAAAUAUCACCAUCCUUGUGACACUGGCACUAAGCAAUG: 0.751

Sample 2 — target: CCNA2, cyclin fold, Cln2 fusion (human); technique: yeast growth competition, sequencing; matrix: yeast; notes: weak parent motif; baseline: not given; direction: higher = stronger binding; measurement: normalised enrichment score
Starting sequence: MASTL docking peptide (human); PMIAKNLMCELDE
M2T: -0.026
K5E: -0.3
L11Q: -0.0646
N6R: -0.047
I3N: 0.0415
L7G: -0.734
I3F: -0.343
D12G: 0.0829

Sample 3 — technique: RNA Bind-n-Seq; molecule type: RNA; matrix: in vitro; concentration: 1 µM; notes: whole 134-nt RNA, ends assumed; added: 150 mM KCl; baseline: input library; direction: higher = stronger binding; measurement: log2 enrichment
Target: Ras GTPase-activating protein-binding protein 1, C-terminal RGG region (G3BP1, Homo sapiens, UniProt Q13283)
Chain of UniProt Q13283 (whole entry, looked up): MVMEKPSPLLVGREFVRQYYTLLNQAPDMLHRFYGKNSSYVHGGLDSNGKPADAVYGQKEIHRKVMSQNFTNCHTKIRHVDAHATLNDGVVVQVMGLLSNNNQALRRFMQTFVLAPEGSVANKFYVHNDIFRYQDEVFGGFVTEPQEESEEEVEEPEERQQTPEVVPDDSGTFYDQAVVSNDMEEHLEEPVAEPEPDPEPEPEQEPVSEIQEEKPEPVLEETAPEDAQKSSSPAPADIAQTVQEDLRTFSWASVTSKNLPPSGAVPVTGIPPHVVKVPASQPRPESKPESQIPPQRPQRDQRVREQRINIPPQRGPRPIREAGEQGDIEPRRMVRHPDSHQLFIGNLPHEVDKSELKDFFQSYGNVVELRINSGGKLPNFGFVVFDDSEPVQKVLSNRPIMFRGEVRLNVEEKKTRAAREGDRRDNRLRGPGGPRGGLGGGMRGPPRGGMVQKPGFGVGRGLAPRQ
All sequences stand within: GGGAGUUCUACAGUCCGACGAUC … UGGAAUUCUCGGGUGUCAAGG
UCAAGUCCUGUGCUACACAUCGUAUGUACCGAAUCGGGGUUGGGUUGGUUGGGGAAAGUAUUAUGUUACGCCGUUCGGAUCUGCACUUCC: 0.757
GUCCUGUGCUACACAUCGUAUGUACCGAAUCGGUUUUUUGGGUUUUUUGGGUUUUUUGGAAAGUAUUAUGUUACGCCGUUCGGAUCUGCA: -1.31
ACCAUGCAGGUGGGCAUCUUUGGGAAGUGGGGCAAGGGGGGGAUAGGGAGGGGGGUAACACUUUGGGAACAUGUGGUCCCAGGUCGUUUC: 2.29
CCUGUGCUACACAUCGUAUGUACCGAAUCGGGUUUUUUUGGGAAAAAGGGUUUUUUUGGGAAAGUAUUAUGUUACGCCGUUCGGAUCUGC: -1.9
UGGGAGGUGGAUUUUGUUUAUUUUUUUAGCACAUUUCCAGGGGUGGGAAUUUUUUUUUAAUAUGUGUCAUGAAUAAAGUUGUUUUUGAAA: 3.42
CAAGUCCUGUGCUACACAUCGUAUGUACCGAAUCGGGGAGGGGAGGGGAAAGGGGAAAGUAUUAUGUUACGCCGUUCGGAUCUGCACUUC: 3.03

Further values, each from its own experiment
PhoQ, residues 284 288 289 292 302 303 AMDMFI
fold induction (PhoP, residues 12 14 15 18 19 NQGLL (Escherichia coli, UniProt P23836); Sort-seq, measured: YFP reporter; E. coli; PhoQ-PhoP variant library, added: 10 µM Mg2+; baseline: high Mg2+ state, higher = stronger signaling): 1.77

For quick reference, copied from above (sample 3):
ACCAUGCAGGUGGGCAUCUUUGGGAAGUGGGGCAAGGGGGGGAUAGGGAGGGGGGUAACACUUUGGGAACAUGUGGUCCCAGGUCGUUUC: 2.29
CCUGUGCUACACAUCGUAUGUACCGAAUCGGGUUUUUUUGGGAAAAAGGGUUUUUUUGGGAAAGUAUUAUGUUACGCCGUUCGGAUCUGC: -1.9
UGGGAGGUGGAUUUUGUUUAUUUUUUUAGCACAUUUCCAGGGGUGGGAAUUUUUUUUUAAUAUGUGUCAUGAAUAAAGUUGUUUUUGAAA: 3.42
